Measurements gathered from unrelated publications.
Numbers after ± are the reported error.

| SMILES | tested on | assay | test system | conditions | scale | endpoint | value |
| --- | --- | --- | --- | --- | --- | --- | --- |
| C[C@@H]1O[C@@H](O[C@@H]2[C@@H](O)[C@H](O)[C@@H](CO)O[C@H]2c2c(O)cc(O)c3c(=O)cc(-c4ccc(O)cc4)oc23)[C@H](O)[C@H](O)[C@H]1O | – | – | Caco-2 | 100 µg/mL | – | efflux ratio | 0.95 |
| CC(C)(O)c1ncc([S@](N)(=O)=NC(=O)Nc2c3c(cc4c2CCC4)CCC3)s1 | – | refers to: investigations | healthy human | oral, 100 mg, all formulations pooled | – | subjects with TEAEs | 17% |
| CCCCCCCCCCCCCCCC(=O)N[C@@H](CCC(=O)NCCCC[C@H](NC(=O)[C@H](C)NC(=O)[C@H](C)NC(=O)[C@H](CCC(N)=O)NC(=O)CNC(=O)[C@H](CCC(=O)O)NC(=O)[C@H](CC(C)C)NC(=O)[C@H](Cc1ccc(O)cc1)NC(=O)[C@H](CO)NC(=O)[C@H](CO)NC(=O)[C@@H](NC(=O)[C@H](CC(=O)O)NC(=O)[C@H](CO)NC(=O)[C@@H](NC(=O)[C@H](Cc1ccccc1)NC(=O)[C@@H](NC(=O)CNC(=O)[C@H](CCC(=O)O)NC(=O)[C@H](C)NC(=O)[C@@H](N)Cc1cnc[nH]1)[C@@H](C)O)[C@@H](C)O)C(C)C)C(=O)N[C@@H](CCC(=O)O)C(=O)N[C@@H](Cc1ccccc1)C(=O)N[C@H](C(=O)N[C@@H](C)C(=O)N[C@@H](Cc1c[nH]c2ccccc12)C(=O)N[C@@H](CC(C)C)C(=O)N[C@H](C(=O)N[C@@H](CCCNC(=N)N)C(=O)NCC(=O)N[C@@H](CCCNC(=N)N)C(=O)NCC(=O)O)C(C)C)[C@@H](C)CC)C(=O)O | – | – | obese diabetic cynomolgus monkey, serum | dose not given, day 43 | – | ALT | 49.4 ± 10.4 U/L |
| COc1ccc2c(c1)CCn1c[n+]3c(c1-2)-c1ccc(OC)cc1CC3 | – | – | female NSG mice, blood | 6 mg/kg, day 7, 5 days per week | – | Basophils | 2.57 ± 3.02% |
| [11CH3]N1CCC(NC(=O)c2cc(-c3c(O)cc(O)cc3Oc3ccc([N+](=O)[O-])cc3)on2)CC1 | – | – | Wistar rat, female, healthy, lungs | intravenous, 18.5 MBq, 60 min | – | SUV | 1 ± 0.1 |
| [123I]c1ccc2nc(-c3ccc(-n4ccnn4)nc3)cn2c1 | – | – | male Wistar rat, spleen | intravenous, 4 MBq, 24 h | – | tracer uptake | 0.004 %ID/g |
| CC(C)Oc1cccc(C(=O)C2CCCN(Cc3cnn(C(C)C)c3)C2)c1 (centres unmarked) | Trypanosoma cruzi | reporter mRNA translation, inhibitor, refers to: capped polyadenylated Renilla luciferase mRNA | cell-free extract | concentration not given | baseline: control RNA | relative translation | 104% |
| O=C([O-])CN1CCN(CC(=O)[O-])CCN(C(CO)C(O)CO)CCN(CC(=O)[O-])CC1.[Dy+3] (centres unmarked) | – | – | cynomolgus monkey, liver | dose not given, day 5 | – | lanthanide tissue concentration | 4.2 ± 1.6 nmol/g |
| C=CC(=O)Nc1cccc(Cn2ncc3cnc(Nc4cnn(CCOC)c4)nc32)c1 | – | – | mouse hepatocytes | – | – | scaled intrinsic clearance | 88.2 mL/min/kg |
| COCC1CN(C2CCN(c3cc(OC)c(Nc4ncc(Br)c(Nc5ccc6c(c5P(C)(C)=O)OCCO6)n4)cc3C)CC2)C1 | – | first-in-human trial | human | oral, 240 mg once daily | any treatment-related | adverse events | 100% |
| Cc1c(Cc2cccc(OC(C)(C)C(=O)O)c2)c2ccc(C(=O)N[C@@H](C)c3cc(C(C)(C)C)ccc3F)cc2n1CC(C)C | – | – | mouse liver microsomes | 1 µM, with: microsomes 1 mg/mL | – | half-life | > 1 h |
| O=C(Nc1cnccc1-c1ccc([18F])nc1)c1ccnc(NC(=O)C2CC2)c1 | – | – | FVB/NJ mice (both sexes), pancreas | intravenous, dose not given, 120 min, with: tariquidar 15 mg/kg i.v. pre-dose | – | SUV | 0.302 |
| CC(C)C[C@H](NC(=O)[C@H](CCCCN)NC(=O)[C@H](CC(C)C)NC(=O)[C@H](CCCCN)NC(=O)C1CCC=CCCC(NC(=O)[C@H](CCCCN)NC(=O)[C@H](CC(C)C)NC(=O)[C@H](CCCCN)NC(=O)[C@@H](N)CC(C)C)C(=O)N[C@@H](CCCCN)C(=O)N2CCC[C@@H]2C(=O)NCC(=O)N[C@@H](CCCCN)C(=O)N1)C(N)=O (some centres unmarked) | – | RP-HPLC C18 | – | hydrophobicity | – | retention time | 15.7 min |
| Cc1cc(-c2ccc(C(=O)[C@@H]3CCCC[C@H]3C(=O)Nc3cnn4c3C(=O)NCC4)cc2)[nH]n1 | – | – | human, faeces | oral, 200 mg, 0-120 h | baseline: dose | cumulative recovery of radioactivity | 63.8% |
| CCN1CCSC1=CC=CC1=[N+](CC)CCS1 | Trypanosoma cruzi | reporter mRNA translation, inhibitor, refers to: capped polyadenylated Renilla luciferase mRNA | cell-free extract | concentration not given | baseline: control RNA | relative translation | 90.1% |
| CC(C)n1ncc2c(C(=O)NCC(C)(C)N)cc(C3CC3)nc21 | – | metabolic stability | mouse, liver microsomes | – | – | microsomal CLint | < 9.6 µL/min/mg |
| O=C([O-])CN1CCN(CC(=O)[O-])CCN(CC(CCCc2ccccc2[N+](=O)[O-])N(CC(=O)[O-])CC(=O)[O-])CC1.[177Lu+3] (centres unmarked) | – | TLC | human serum | 37 h, pH 7, 37 °C | – | intact radiolabelled complex | 99.8 ± 0.1% |

Repeated from above:
| SMILES | tested on | assay | test system | conditions | scale | endpoint | value |
| --- | --- | --- | --- | --- | --- | --- | --- |
| CC(C)C[C@H](NC(=O)[C@H](CCCCN)NC(=O)[C@H](CC(C)C)NC(=O)[C@H](CCCCN)NC(=O)C1CCC=CCCC(NC(=O)[C@H](CCCCN)NC(=O)[C@H](CC(C)C)NC(=O)[C@H](CCCCN)NC(=O)[C@@H](N)CC(C)C)C(=O)N[C@@H](CCCCN)C(=O)N2CCC[C@@H]2C(=O)NCC(=O)N[C@@H](CCCCN)C(=O)N1)C(N)=O (some centres unmarked) | – | RP-HPLC C18 | – | hydrophobicity | – | retention time | 15.7 min |
| COc1ccc2c(c1)CCn1c[n+]3c(c1-2)-c1ccc(OC)cc1CC3 | – | – | female NSG mice, blood | 6 mg/kg, day 7, 5 days per week | – | Basophils | 2.57 ± 3.02% |
| Cc1c(Cc2cccc(OC(C)(C)C(=O)O)c2)c2ccc(C(=O)N[C@@H](C)c3cc(C(C)(C)C)ccc3F)cc2n1CC(C)C | – | – | mouse liver microsomes | 1 µM, with: microsomes 1 mg/mL | – | half-life | > 1 h |
